Experimental data pooled from the literature.
± gives the spread as reported.

| Compound | test | test system | conditions | clearance |
| --- | --- | --- | --- | --- |
| CN(C)N=Nc1[nH]cnc1C(N)=O | – | human patients, plasma | intravenous, 1000 mg/m^2 over 1 h, cycle 2 day 1, staggered with twice-weekly co-drug | 12.5 L/h/m² |
| CN[C@@H](C)C(=O)N[C@H]1CN(S(=O)(=O)c2cccc(S(=O)(=O)N3CC[C@H]4CC[C@@H](C(=O)NC(c5ccccc5)c5ccccc5)N4C(=O)[C@@H](NC(=O)[C@H](C)NC)C3)c2)CC[C@H]2CC[C@@H](C(=O)NC(c3ccccc3)c3ccccc3)N2C1=O | LC-MS/MS, noncompartmental | human, plasma | 30 mg, cycle 1 day 1 | 39.4 ± 18.4 L/h |
| CN(C)CCCNC(=O)/C(=C/CCCCC(=O)NO)COc1cccc2ccccc12 | – | human | iv, 187.5 mg/m2, day 1, single dose, mean | 6.49 L/h |
| Cc1ccc([C@@H]2O[C@H](CO)[C@@H](O)[C@H](O)[C@H]2O)cc1Cc1ccc(-c2ccc(F)cc2)s1 | – | human, maintenance hemodialysis patients | oral, 300 mg once daily, steady state, median | 14 L/h |
| Nc1ccn([C@@H]2O[C@H](CO)[C@@H](O)C2(F)F)c(=O)n1 | HPLC-UV | human, plasma | 800 mg/m^2, median, before paricalcitol | 49.1 L/h/m² |
| Cc1cn(-c2cc(NC(=O)c3ccc(C)c(Nc4nccc(-c5cccnc5)n4)c3)cc(C(F)(F)F)c2)cn1 | population PK model | human, plasma | oral, bootstrap estimate | 34.5 L/h |
| NC(=O)N1c2ccccc2CC(O)c2ccccc21 (stereo not drawn) | population PK modelling | human patients, plasma | weight-scaled, with back-conversion | 2.76 L/h |
| O=C(/C=C/c1cccc(S(=O)(=O)Nc2ccccc2)c1)NO | – | human patients, plasma | 1900 mg/m^2 | 28 L/h/m² |
| NS(=O)(=O)OC[C@@H]1C[C@@H](n2ccc3c(N[C@H]4CCc5ccccc54)ncnc32)C[C@@H]1O | – | human, plasma | day 1 cycle 1, median, all dose levels | 18.3 L/h/m2 |
